Results gathered from unrelated publications.
Each line is one published result; not all experiments were run side by side. Several values in a cell are separate wells, animals, samples, runs or records. ± gives the spread as reported.

CCn1ccc(-c2cc([C@@H](C)NC(=O)c3cc(N4CCN(C)[C@H](C)C4)ccc3C)c3ccccc3n2)n1  viability (Vero E6; 125 µM): 1.43% and 0.716%
CC[C@H](C)[C@H](NC(=O)[C@H](CCCCN)NC(=O)CNC(=O)[C@H](CC(C)C)NC(=O)[C@H](Cc1ccccc1)NC(=O)[C@H](CCCCN)NC(=O)[C@H](CO)NC(=O)[C@H](Cc1ccccc1)NC(=O)[C@H](Cc1c[nH]c2ccccc12)NC(=O)[C@H](CCC(N)=O)NC(=O)[C@@H](NC(=O)[C@H](Cc1ccccc1)NC(=O)CCCCCNC(=O)CN1CCN(CC(=O)O)CCN(CC(=O)O)CCN(CC(=O)O)CC1)C(C)C)C(=O)N[C@@H](CCC(=O)O)C(=O)N1CCC[C@H]1C(=O)N[C@@H](CC(=O)O)C(=O)N[C@H](C(=O)N[C@@H](CO)C(=O)N[C@@H](CCC(N)=O)C(=O)N[C@H](C(=O)N[C@@H](CCC(N)=O)C(=O)N[C@@H](CC(=O)O)C(=O)N1CCC[C@H]1C(=O)N[C@@H](CC(N)=O)C(=O)N[C@@H](CC(=O)O)C(=O)N[C@@H](CCC(N)=O)C(=O)N[C@@H](Cc1ccc(O)cc1)C(=O)N[C@@H](CCC(=O)O)C(=O)N1CCC[C@H]1C(=O)N[C@@H](Cc1ccccc1)C(=O)O)C(C)C)C(C)C [copper-64 labelled]  SUVmean (dynamic PET; mouse both sexes, CT26 tumour, checkpoint inhibitor-treated, tumour; intravenous, 100 µCi/mouse, 270 s): 3.29 SUV
Cc1ccc(OC[C@@H]2CCCN2C)cc1C(=O)N[C@H](C)c1cc(-c2cnn(C)c2)nc2ccccc12  viability (African green monkey cells; 15.62 µM): 94%
COc1c(N2CC3CCCNC3C2)c(F)cc2c(=O)c(C(=O)OCc3ccc([N+](=O)[O-])o3)cn(C3CC3)c12 (stereo not drawn)  reduction potential (cyclic voltammetry; anhydrous acetonitrile; concentration not given; baseline: Ag/AgCl): -0.81 V
COc1ccc([C@@H]2CC(=O)c3c(O)cc(O[C@@H]4O[C@H](CO)[C@@H](O)[C@H](O)[C@H]4O[C@@H]4O[C@@H](C)[C@H](O)[C@@H](O)[C@H]4O)cc3O2)cc1O  cumulative faecal excretion (male Sprague-Dawley rats, obese, faeces; oral, 100 mg/kg, 48 h): 13000 ± 1230 ng
N#[11C]c1ccc(-c2csc(NN=C3CCCC3)n2)cc1  peak radioactivity uptake (dynamic PET/CT; C57BL/6 mouse, liver; intravenous, dose not given, 5 min): 2.3 SUV
NC1CCN(C(=O)Oc2ccc(C3CCCC4(C3)OOC3(O4)C4CC5CC(C4)CC3C5)cc2)CC1 (racemic)  Vd (male mouse, plasma; intravenous, 10 mg/kg): 22.7 L/kg
CC(C)[C@@H]1NC(=O)CNC(=O)[C@H](CC(N)=O)NC(=O)[C@H](CCCNC(=N)N)NC(=O)[C@H](Cc2ccc(O)cc2)NC(=O)[C@H](C(C)C)NC(=O)[C@@H](NC(=O)[C@@H](NC(=O)[C@H](CC(N)=O)NC(=O)[C@H](Cc2c[nH]c3ccccc23)NC(=O)[C@H](C)NC(=O)[C@H](Cc2ccccc2)NC(=O)CNC(=O)[C@H](CCCCN)NC(=O)[C@H](Cc2ccccc2)NC(=O)[C@H](Cc2ccccc2)NC(=O)[C@H](CCCCN)NC(=O)OCC2c3ccccc3-c3ccccc32)C(C)C)CSSC[C@@H](C(=O)N[C@@H](Cc2c[nH]cn2)C(=O)N[C@@H](CCCNC(=N)N)C(=O)N[C@@H](CCCNC(=N)N)C(=O)N[C@@H](C)C(=O)N[C@@H](CC(N)=O)C(N)=O)NC(=O)[C@H](C(C)C)NC(=O)[C@H](CCCNC(=N)N)NC1=O  basophils (ICR mouse, blood; intramammary, 5 mg/kg, day 5, 3 d dosing): 1.55 ± 0.24%
CC[C@H](C)[C@H](NC(=O)[C@H](CCCNC(=N)N)NC(=O)[C@H](CCCNC(=N)N)NC(=O)[C@H](CC(C)C)NC(=O)[C@H](Cc1c[nH]c2ccccc12)NC(=O)[C@H](CCCCN)NC(=O)[C@H](CCCNC(=N)N)NC(=O)[C@H](CCCCN)NC(=O)[C@H](CCCNC(=N)N)NC(=O)[C@H](CCCNC(=N)N)NC(=O)CN)C(=O)NCC(=O)N[C@@H](CCCCN)C(=O)NCC(=O)N[C@H](C(=O)N[C@@H](CCCCN)C(=O)N[C@H](C(=O)N[C@H](C(=O)NCC(=O)NCC(=O)N[C@@H](C)C(=O)N[C@@H](C)C(=O)N[C@@H](CC(C)C)C(=O)N[C@@H](CC(=O)O)C(=O)N[C@@H](Cc1c[nH]cn1)C(=O)N[C@@H](CC(C)C)C(N)=O)[C@@H](C)CC)[C@@H](C)CC)C(C)C  acute toxic concentration (zebrafish embryos 28 hpf, E3 medium; 1 h): 25 µM
CC[C@H](C)[C@@H]1NC(=O)[C@H](Cc2ccc(O)cc2)NC(=O)CCCSC[C@@H](C(=O)N(CC(=O)N[C@@H](CC(C)C)C(=O)NCC(N)=O)Cc2ccc(F)cc2)NC(=O)[C@H](CC(N)=O)NC(=O)[C@H](CCC(N)=O)NC1=O  deaths (human; intranasal, 5 µg single dose): 0%
CCN(CCCCOc1ccc(CCC(=O)N2CCC(Cc3ccccc3)CC2)cc1OC)Cc1ccccc1  excretion rate (Sprague-Dawley rats, both sexes, faeces; oral gavage, 25 mg/kg, 6 to 12 h; baseline: dose): 0.143 ± 0.115%
O=C1NC2(CC2)COc2ncc(F)cc2[C@H]2COCCN2c2ccn3ncc1c3n2  mean corpuscular haemoglobin (Sprague-Dawley rat, male, blood; oral, 5 mg/kg/day, 4 weeks, end of treatment, subacute toxicity): 20 ± 1.2 pg
C=Cc1c(C)c2cc3nc(c(CC(=O)O)c4[nH]c(cc5nc(cc1[nH]2)C(C)=C5CC)c(C)c4C(=O)O)[C@@H](CCC(=O)NCCCC[C@H](NC(C)=O)C(=O)N[C@@H](Cc1ccccc1)C(=O)N[C@@H](Cc1ccccc1)C(=O)N[C@H](C(=O)N[C@@H](CC(C)C)C(=O)N[C@@H](CCCCN)C(=O)N[C@@H](CO)C(=O)NCC(=O)N[C@@H](CCC(N)=O)C(=O)N[C@@H](Cc1ccc(O)cc1)C(=O)N[C@@H](C)C(=O)N[C@@H](CO)C(=O)N[C@@H](Cc1ccc(O)cc1)C(=O)N[C@@H](Cc1c[nH]cn1)C(=O)N[C@@H](CS)C(=O)N[C@@H](Cc1c[nH]c2ccccc12)C(=O)N[C@@H](CS)C(=O)N[C@@H](Cc1c[nH]c2ccccc12)C(=O)N[C@@H](CCCNC(=N)N)C(=O)N[C@@H](CC(=O)O)C(=O)N1CCC[C@H]1C(=O)NCC(=O)N[C@@H](CCCNC(=N)N)C(=O)N[C@@H](CO)C(=O)NCC(=O)NCC(=O)N[C@@H](CO)C(=O)N[C@@H](CCCCN)C(N)=O)C(C)C)[C@@H]3C  TNF level (mouse, 4T1 breast tumour, serum; concentration not given, 21 days after single dose): 47.1 pg/mL and 46.8 pg/mL
CC1(C)C(=O)N(c2ccc(C#N)c(C(F)(F)F)c2)C(=S)N1c1ccc(C(N)=O)c(F)c1  AUC(0-t) (human, male, plasma; oral, 160 mg, single dose, fasting): 258 ± 48.9 µg·h/mL
COC(=O)[C@@H](Cc1ccc(-c2ccccc2)cc1)NC(=O)c1ccc(-c2ccc(OP(=O)(O)O)cc2)cc1  critical micelle concentration (PBS; pH 7.4, before phosphatase treatment): 92.6 µM

For quick reference, copied from above:
COc1ccc([C@@H]2CC(=O)c3c(O)cc(O[C@@H]4O[C@H](CO)[C@@H](O)[C@H](O)[C@H]4O[C@@H]4O[C@@H](C)[C@H](O)[C@@H](O)[C@H]4O)cc3O2)cc1O  cumulative faecal excretion (male Sprague-Dawley rats, obese, faeces; oral, 100 mg/kg, 48 h): 13000 ± 1230 ng
